Measured values gathered from unrelated publications.
Protocols differ between the studies behind these lines. ± gives the spread as reported.
Cell line: RAW264.7

Compound | assay | setting | IC50
COc1ccc2c(c1CC=C(C)C)O[C@H]1c3cc4c(cc3OC[C@@]21O)OC(C)(C)C=C4 | nitric oxide production | up to 100 µM, with: LPS | inactive
COC(=O)[C@H](CSSC(C)(C)[C@H](NC(=O)[C@H](CCC(=O)NC[C@H](O)[C@@H](O)[C@H](O)[C@H](O)CO)NC(=O)[C@H](CCC(=O)O)NC(=O)[C@H](CCC(=O)NC[C@H](O)[C@@H](O)[C@H](O)[C@H](O)CO)NC(=O)[C@H](CCC(=O)O)NC(=O)[C@H](CCC(=O)NC[C@H](O)[C@@H](O)[C@H](O)[C@H](O)CO)NC(=O)CC[C@H](NC(=O)c1ccc(NCc2cnc3nc(N)[nH]c(=O)c3n2)cc1)C(=O)O)C(=O)O)NC(=O)CC[C@H](NC(=O)c1ccc(NCc2cnc3nc(N)nc(N)c3n2)cc1)C(=O)O | cell viability, XTT | 2 h pulse, 70 h chase | 0.0029 µM
O=c1c2ccccc2oc2nc(N3CCCCC3)sc12 | IL-1β release, inhibitor, ELISA | 48 h, LPS-stimulated | 9.64 µM
CCCCn1cc(C(=O)O)c(=O)c2cc(F)c(N)c([N+](=O)[O-])c21 | nitric oxide production, Griess | 24 h, with: LPS | 33.3 ± 2.25 µg/mL
CN(C)C1CCN(c2nc3oc4ccccc4c(=O)c3s2)CC1 | IL-6 release, inhibitor, ELISA | 48 h, LPS-stimulated | 12.6 µM
COc1ccc(CCNC(=O)CCc2ccc(O)c(O)c2)cc1OC | NO release, inhibitor, Griess | 24 h, LPS-stimulated | > 10 µM
CC(C)=CCc1cc([C@@H]2CC(=O)c3ccc(O)c(CC=C(C)C)c3O2)c(O)c(CC=C(C)C)c1O | nitric oxide production | up to 100 µM, with: LPS | inactive
CCC(=O)NCc1ccccc1 | NO release, inhibitor, Griess | 24 h, LPS-stimulated | > 200 µM
O=c1c2cc(Cl)ccc2oc2nc(N3CCCCC3)sc12 | IL-1β release, inhibitor, ELISA | 48 h, LPS-stimulated | 35.4 µM
CCCCn1cc(C(=O)O)c(=O)c2cc(F)c3[nH]nnc3c21 | nitric oxide production, Griess | 24 h, with: LPS | 969 ± 177 µg/mL
CC(C)=CCc1c(O)c(CC=C(C)C)c2occ(-c3ccc(O)c(O)c3)c(=O)c2c1O | cell growth or viability, MTT | – | 43.3 µM
COc1c2c(cc3c1[C@@H]1Oc4c(ccc(O)c4CC=C(C)C)[C@@H]1CO3)OC(C)(C)C=C2 | nitric oxide production | up to 100 µM, with: LPS | inactive
CC(=O)O[C@H]1CC[C@]2(C)[C@H]3CC=C4[C@@H]5CC(C)(C)CC[C@]5(C(=O)O)CC[C@@]4(C)[C@]3(C)CC[C@H]2C1(C)C | NO release, inhibitor, Griess | LPS-stimulated | > 100 µM
O=C(CCc1ccc(O)c(O)c1)NCCc1ccc(O)c(O)c1 | NO release, inhibitor, Griess | 24 h, LPS-stimulated | > 20 µM
CC(C)=CCc1cc(-c2coc3cc(O)c(CC=C(C)C)c(O)c3c2=O)ccc1O | cell growth or viability, MTT | – | 110 µM
CC(C)=CCC[C@@](C)(O)[C@H]1CC[C@]2(C)[C@@H]1CC[C@@H]1[C@@]3(C)CCC(=O)C(C)(C)[C@@H]3CC[C@]12C | NO release, inhibitor, Griess | LPS-stimulated | 95.7 µM
CCOC(=O)c1csc2nc(-c3cccc(NC(=O)c4cc5cc(NC(=O)C(C)Cl)ccc5n4Cc4ccc(C(F)(F)F)cc4)c3)cn12 (stereo not drawn) | NO release, inhibitor, Griess | 24 h, LPS-stimulated | 11 µM
O=c1c2ccccc2oc2nc(N3CCC(N4CCCCC4)CC3)sc12 | IL-1β release, inhibitor, ELISA | 48 h, LPS-stimulated | 24.4 µM

Compound | assay | setting | IC50
Oc1ccc(-c2cc(-c3ccc(OCCN4CCCCC4)cc3)n(-c3ccc(O)cc3)n2)cc1 | TNF-alpha production, inhibitor | with: CpG-DNA | 1.03 ± 0.8 µM
COc1ccc2c(oc3c4ccc(O)cc4oc(=O)c23)c1CC=C(C)C | nitric oxide production | up to 100 µM, with: LPS | inactive
O=C(/C=C/c1ccc(O)c(O)c1)NCCc1ccccc1 | NO release, inhibitor, Griess | 24 h, LPS-stimulated | 2.38 µM
CC/C=C\C/C=C\C/C=C\CCCCCCCC(=O)OC[C@@H](O)CO[C@@H]1O[C@H](CO)[C@H](O)[C@H](O)[C@H]1O | NO release, inhibitor, Griess | 20 h, LPS-stimulated | 59.4 µM
O=C1CCNCN1Cc1ccccc1 | NO release, inhibitor, Griess | 24 h, LPS-stimulated | 186 µM
CC(C)C1=C(OC(=O)C(C)(C)C)C(=O)C2=C(C=C[C@H]3C(C)(C)CCC[C@]23C)C1=O | NO release, inhibitor | 24 h, LPS-stimulated | 4.19 µM
CC1C(O)CC2(CO)CCC3(C)C(=CCC4C(C)(CCC(=O)O)C(C(C)(O)CO)CCC43C)C2C1C (stereo not drawn) | NO production, Griess | 24 h, pre-incubated with HMGB1 15 min, with: HMGB1 | 9.37 µM
Oc1ccc(-c2cc(-c3ccc(OCCCN4CCCCC4)cc3)n(-c3ccc(O)cc3)n2)cc1 | cell growth or viability, resazurin | – | 12.4 µM
CCOC(=O)c1csc2nc(-c3cccc(NC(=O)c4cc5cc(NC(=O)c6ccco6)ccc5n4Cc4ccc(C(F)(F)F)cc4)c3)cn12 | NO release, inhibitor, Griess | 24 h, LPS-stimulated | 20 µM
CO[C@H]1CC(=O)[C@]2(C)[C@H]3CC[C@]4(C)C([C@H](C)[C@H]5CC(C)=C(C)C(=O)O5)=C[C@H](OC(C)=O)[C@@]4(O)[C@@H]3C[C@H]3O[C@]32C1 | NO release, inhibitor, Griess | LPS-stimulated | 25.7 µM
CCn1cc(/C=C/c2sc3ccccc3[n+]2CC)c2ccccc21 | cell growth or viability, MTT | 24 h | > 20 µM
CC(C)(O)[C@@H]1CC[C@](C)([C@H]2CC[C@]3(C)[C@@H]2CC[C@@H]2[C@@]4(C)CCC(=O)C(C)(C)[C@@H]4CC[C@]23C)O1 | NO release, inhibitor, Griess | LPS-stimulated | > 100 µM
Oc1ccc(-c2cc(-c3ccc(OCCN4CCCCC4)cc3)n(-c3ccc(O)cc3)n2)cc1 | cell growth or viability, resazurin | – | 11.7 µM
C=CC(=O)Nc1ccc2c(c1)cc(C(=O)Nc1cccc(-c3cn4c(C(=O)OCC)csc4n3)c1)n2Cc1ccc(C(F)(F)F)cc1 | NO release, inhibitor, Griess | 24 h, LPS-stimulated | 61.5 µM
COc1c(CC=C(C)C)c(O)cc2c1[C@@H]1Oc3c(ccc(O)c3CC=C(C)C)[C@@H]1CO2 | nitric oxide production | up to 100 µM, with: LPS | inactive
CC1=C(C)C(=O)O[C@@H]([C@@H](C)C2=C[C@@H](O)[C@]3(O)[C@@H]4C[C@@H](O)[C@@]5(O)CC=CC(=O)[C@]5(C)[C@H]4CC[C@]23C)C1 | NO release, inhibitor, Griess | LPS-stimulated | 38.7 µM
COc1ccc2c(c1CC=C(C)C)O[C@H]1c3cc(CC=C(C)C)c(O)cc3OC[C@@H]21 | nitric oxide production | up to 100 µM, with: LPS | inactive
CC/C=C\C/C=C\C/C=C\CCCCCC(=O)OC[C@@H](O)CO[C@@H]1O[C@H](CO)[C@H](O)[C@H](O)[C@H]1O | NO release, inhibitor, Griess | 20 h, LPS-stimulated | 63.8 µM

Some of these lines once more:
Compound | assay | setting | IC50
CC1C(O)CC2(CO)CCC3(C)C(=CCC4C(C)(CCC(=O)O)C(C(C)(O)CO)CCC43C)C2C1C (stereo not drawn) | NO production, Griess | 24 h, pre-incubated with HMGB1 15 min, with: HMGB1 | 9.37 µM
Oc1ccc(-c2cc(-c3ccc(OCCCN4CCCCC4)cc3)n(-c3ccc(O)cc3)n2)cc1 | cell growth or viability, resazurin | – | 12.4 µM
CCOC(=O)c1csc2nc(-c3cccc(NC(=O)c4cc5cc(NC(=O)c6ccco6)ccc5n4Cc4ccc(C(F)(F)F)cc4)c3)cn12 | NO release, inhibitor, Griess | 24 h, LPS-stimulated | 20 µM
CO[C@H]1CC(=O)[C@]2(C)[C@H]3CC[C@]4(C)C([C@H](C)[C@H]5CC(C)=C(C)C(=O)O5)=C[C@H](OC(C)=O)[C@@]4(O)[C@@H]3C[C@H]3O[C@]32C1 | NO release, inhibitor, Griess | LPS-stimulated | 25.7 µM
CCn1cc(/C=C/c2sc3ccccc3[n+]2CC)c2ccccc21 | cell growth or viability, MTT | 24 h | > 20 µM
CC(C)(O)[C@@H]1CC[C@](C)([C@H]2CC[C@]3(C)[C@@H]2CC[C@@H]2[C@@]4(C)CCC(=O)C(C)(C)[C@@H]4CC[C@]23C)O1 | NO release, inhibitor, Griess | LPS-stimulated | > 100 µM
